Assay results from different studies.
A part holds a random share of what one study measured.

Block 1
Target: Interferon regulatory factor 7, full length, phosphomimetic (IRF7, Homo sapiens, UniProt Q92985, residues 1-503, S101K/S471D/S472D/S475D/S476D/S477D/S483D/S484D/S487D)
Technique: protein-binding microarray
Form: double-stranded DNA, one strand shown
Matrix: in vitro
Concentration: 250 nM
Setting: 60-bp whole probe
Together with: salmon DNA 0.4 mg/ml
Relative to: random background probes
Direction: higher = stronger binding
Measurement: log fluorescence
Shared flanks, not repeated: GCCTAGCAC … GTCTTGATTCGCTTGACGCTGCTG
Residues (chain): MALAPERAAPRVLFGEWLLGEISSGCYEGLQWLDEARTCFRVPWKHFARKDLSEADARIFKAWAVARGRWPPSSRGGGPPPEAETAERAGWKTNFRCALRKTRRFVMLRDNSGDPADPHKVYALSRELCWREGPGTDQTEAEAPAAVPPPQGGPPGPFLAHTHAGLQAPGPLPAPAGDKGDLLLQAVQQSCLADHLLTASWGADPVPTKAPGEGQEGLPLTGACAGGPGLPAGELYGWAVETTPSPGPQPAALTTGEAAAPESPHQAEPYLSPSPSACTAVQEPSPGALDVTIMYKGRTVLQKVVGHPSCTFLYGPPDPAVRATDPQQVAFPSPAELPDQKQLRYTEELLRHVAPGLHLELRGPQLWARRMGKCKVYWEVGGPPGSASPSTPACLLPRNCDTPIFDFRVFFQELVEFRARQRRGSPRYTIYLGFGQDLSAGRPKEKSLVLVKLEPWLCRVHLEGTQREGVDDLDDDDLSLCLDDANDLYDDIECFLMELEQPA
Strand = ACAGCTCACGCTTTGGAAAGGTGCTAG; value = -0.339 z-score
Strand = GACGAACTGAGTCTTGAGACGTGCTAG; value = -0.16 z-score
Strand = TCAATTTTTTTTCACTAACTGTGCTAG; value = 0.271 z-score
Strand = TCATGTTTTTTTCTACTTCTGTGCTAG; value = 1.56 z-score
Strand = TTAGATTTCAGTATAGATTAGTGCTAG; value = 0.12 z-score
Strand = GACGACCTCAGTATCGAGACGTGCTAG; value = 0.237 z-score
Strand = TTAGTTCTCGGTTTCGGTTAGTGCTAG; value = 10.4 z-score
Strand = GACGGTGTCGGTCTCGGGACGTGCTAG; value = -0.452 z-score
Strand = AACAGAGGAATGGATACAGAGTGCTAG; value = -0.164 z-score
Strand = TTAGGTATGGACACTGGGTTAGTGCTA; value = -0.825 z-score
Strand = TTAGCTATCGGACTGGGTTAGTGCTAG; value = -0.258 z-score
Strand = TTAGGTTTCGGTCTCAGTTAGTGCTAG; value = 8.07 z-score
Strand = TCATTTTTAGATTTTTTACTGTGCTAG; value = 0.629 z-score
Strand = GATGATCTCAGTCTCGAGACGTGCTAG; value = 0.288 z-score
Strand = GACGAGCTGGGGACTGGAGACGTGCTA; value = -1.05 z-score
Strand = TTAGATTTCAATCTCGATTAGTGCTAG; value = 0.582 z-score
Strand = TGTGAAACCTTCAGGCACGTGTGCTAG; value = -0.49 z-score
Strand = GACGGTCTCCTAATGCTGACGTGCTAG; value = -0.179 z-score
Strand = GACGATATCAGTCTCGATACGTGCTAG; value = 0.735 z-score

Block 2
Target: RNA binding protein fox-1 homolog 2, RRM domain, GST-SBP tag (RBFOX2, Homo sapiens, UniProt O43251-10, residues 100-194)
Technique: RNA Bind-n-Seq
Form: RNA
Matrix: in vitro
Concentration: 365 nM
Setting: natural RNA segment, single round, ends assumed
Relative to: no-protein control
Direction: higher = stronger binding
Measurement: RBNS enrichment (R)
Shared flanks, not repeated: GGGAGUUCUACAGUCCGACGAUC … UGGAAUUCUCGGGUGCCAA
Target sequence (chain): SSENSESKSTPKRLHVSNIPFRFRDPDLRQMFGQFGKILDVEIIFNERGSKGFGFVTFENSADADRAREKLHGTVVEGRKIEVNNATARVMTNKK
Strand = CACUCUUGCCUUCCCCCAAAAUUUACACUGCUAAAGCCCUCUGUCACUUGGCGACCCUUCUGGUCUUGCUGGAGGGGUUUCCUGGGUAUAACCCAUUGGGCUGCCCAAGG; value = 0.242
Strand = CCUGAGGCCUGUGGGGGCUGCAGGGGAGGAGGAUGUACCUUGUGUCUCUUUCAAGUGCCUUAAUCCGAGCCAGCAGGGCCUUCUGCUUGCCUGCUGCCAUACUGUAUGUA; value = 0.729
Strand = UGUGGCUGCCGCGGAGUGUGCCCUGGCCCUGGGCACUGAAGUGUUACAGUGGCUCGUUGCUUCCCUCACUCUGCCCUUGUUAAUAGAAAUUCUCACAGGCCAGGCUCUGU; value = 0.317
Strand = CAGUCUGUCCUGUGCUGUGUGACCUUGGACAAGGCGCUUCAUCUCUCUGGGCCUCUAUUUCUCCAUUUGUAAAACAAGUGGCUGCAGUAGAUGAUGGCUGAGAGCCCUUC; value = 0.23
Strand = GCCUCUCCUUAGAGGCCUUCACAAGAAGCAUAGACACUGUCCCUGACGGUAAUUAGAAGAAGCAGAGGCUCACACAUCUCCUGGCACGGUCUUAUCUCCCUCGUGUGUUG; value = 0.401
Strand = UUCCUUUUAGUUGCCACAAAUAUUCAGUUUUGUUUUAUCCAUCAUGUCCCCCAUAUGCAUGUAAUGAAACAUUUGUGAAAAUCACUUUAAUAAUAAACAGGAAAUGAACC; value = 1.4
Strand = AGUCUCACUUUUAAUUAUAAAACCAGAAAGCUGCAAUUUCUUUUCCCUCUACCCCUUAUUUGUUGGCUUCUUUGUUUUUUUAAUGUCAAAUCUGUUUGUUUUUACCAAGA; value = 0.728
Strand = GUUCUUUCAAAGCCUUAGAGUGGCGCUACACCGGCCAGCUGGCUUAGCUGCAGGAAGGCCUCUUAGCCAGGCUAUUCCCAUUCCAUCCGCUCCCUUCUCCCCACCCAAAC; value = 0.597
Strand = CUCCAAAGAAAGCCAUGCUAAGACUGGGACCAGCCCCUCGUUAGCAUGUCUCCCUGCCACCUGUCACCCAGGAGCUUUGACAUUAUUUCUGCUGCCAUACUCCCCUAGAA; value = 0.61
Strand = CUUCCAGAAGCCUCGAGCCCCUCUUGACCUCCUACACCUGCUUUGGAAAGACAUGCACUUUUUAGUUGACUAAUUCUUCCUCCCAUUCCCCUCUACUUGCGAGUUAUGGA; value = 0.524
Strand = AGAAGACCUCUGCUGCCACCUCGGGCUGUGCACUUGGGAUACGGUUGGUUCUCACGCCAUGAGGGAGAUGUUGGGGUAUACAGGAAGGGCAGAGUGACAUCCCCUCUCAG; value = 1.23
Strand = CUGAGUCCACAAACAGCUGUUAGAACCUAGACAGCAGCAUGACUGGCUCAGAGCUCUUGCCCAUGAGCAGAUGUUUACAAGAGAGGAAAAGAUUGCUUGCUACGACUGCA; value = 9.69

Block 3
Target: Ras GTPase-activating protein-binding protein 1, full length (G3BP1, Homo sapiens, UniProt Q13283)
UniProt Q13283, sequence (whole entry, looked up): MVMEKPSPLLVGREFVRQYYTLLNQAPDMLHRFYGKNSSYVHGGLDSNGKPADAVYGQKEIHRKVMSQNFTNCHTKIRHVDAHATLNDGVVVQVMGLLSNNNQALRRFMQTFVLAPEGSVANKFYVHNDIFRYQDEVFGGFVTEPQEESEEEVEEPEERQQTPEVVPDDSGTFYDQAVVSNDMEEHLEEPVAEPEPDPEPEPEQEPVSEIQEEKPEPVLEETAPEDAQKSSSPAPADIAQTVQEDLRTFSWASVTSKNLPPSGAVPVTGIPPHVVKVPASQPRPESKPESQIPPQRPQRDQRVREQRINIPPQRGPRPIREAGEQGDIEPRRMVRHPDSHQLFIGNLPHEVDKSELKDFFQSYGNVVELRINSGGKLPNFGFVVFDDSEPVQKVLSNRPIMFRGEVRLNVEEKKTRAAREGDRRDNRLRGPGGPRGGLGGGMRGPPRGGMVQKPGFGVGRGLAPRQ
Technique: RNA Bind-n-Seq
Form: RNA
Matrix: in vitro
Concentration: 200 nM
Setting: whole 134-nt RNA, ends assumed
Together with: 150 mM KCl
Relative to: input library
Direction: higher = stronger binding
Measurement: log2 enrichment
Shared flanks, not repeated: GGGAGUUCUACAGUCCGACGAUC … UGGAAUUCUCGGGUGUCAAGG
Strand = CUCAAGUCCUGUGCUACACAUCGUAUGUACCGAAUCGGGGCCGGGCCGGCCGGAAAGUAUUAUGUUACGCCGUUCGGAUCUGCACUUCCA; value = -0.378
Strand = AAGUCCUGUGCUACACAUCGUAUGUACCGAAUCGGGUGGGUUUUUGGGAAAAAGGGAAAGUAUUAUGUUACGCCGUUCGGAUCUGCACUU; value = 0.0773
Strand = ACCAUGCAGGUGGGCAUCUUUGGGAAGUGGGGCAAGGGGGGGAUAGGGAGGGGGGUAACACUUUGGGAACAGGUGGUCCCAGGUUGUUUC; value = 0.844
Strand = GGGUGGACACUGACGAGCUGGACAGCAACGUGGACGACUGGGAAGAGGAGACCAUUGAGUUCUUCGUCACUGAAGAAAUCAUUCCCCUCG; value = -0.917
Strand = UCAAGUCCUGUGCUACACAUCGUAUGUACCGAAUCGGUUUUUGGUGGAAAAAGGAAAGUAUUAUGUUACGCCGUUCGGAUCUGCACUUCC; value = -0.819
Strand = GUCCUGUGCUACACAUCGUAUGUACCGAAUCGGGCCCCCGGGCCCCCGGGCCCCCGGGGAAAGUAUUAUGUUACGCCGUUCGGAUCUGCA; value = -0.884
Strand = UAACUUUAGAGGAGGAUCUGAUGGAUAUGGCAGUGGACGUGGAUUUGGGGAUGGCUCUAAUGGGUAUGGAGGAGGACCUGGAGGUGGCAA; value = 0.299
Strand = UAACUUUAGAGGAGGAUCUGAUGGAUAUGGCGGUGGACGUGGAUUUGGGGAUGGCUAUAAUGGGUAUGGAGGAGGACCUGGAGGUGGCAA; value = 0.414
Strand = AAGUCCUGUGCUACACAUCGUAUGUACCGAAUCGGGUUUUUGGGUUUGGGAAAGGGAAAGUAUUAUGUUACGCCGUUCGGAUCUGCACUU; value = 0.0282
Strand = CUCAAGUCCUGUGCUACACAUCGUAUGUACCGAAUCGGGAAGGGGAAGGAAGGGAAAGUAUUAUGUUACGCCGUUCGGAUCUGCACUUCC; value = -0.15
Strand = GUCCUGUGCUACACAUCGUAUGUACCGAAUCAAACCCCCAAAUUUUUUUAAAUUUAAAAAAGUAUUAUGUUACGCCGUUCGGAUCUGCAC; value = 0.129
Strand = UCCUCAAGUCCUGUGCUACACAUCGUAUGUACCGAAUCGGGCGGGCGGCGGAAAGUAUUAUGUUACGCCGUUCGGAUCUGCACUUCCAGC; value = -0.544
Strand = UGGGGUAGACCAGUUCCAUGGCACUGAAUAUGUGUGCUGCCCUCAGACAAAGAUUAUUGGAUCUGUGUCAAAAGAAGAGGAAGAGGAAGA; value = -1.26
Strand = CAAGUCCUGUGCUACACAUCGUAUGUACCGAAUCGGGAAAGGGUUUUUGGGAGGGAAAGUAUUAUGUUACGCCGUUCGGAUCUGCACUUC; value = 0.549

Block 4
Target: Histone acetyltransferase KAT6A, winged helix 2, GST fusion (KAT6A, Homo sapiens, UniProt Q92794, residues 85-181)
Technique: protein binding microarray
Form: double-stranded DNA, one strand shown
Matrix: in vitro
Concentration: not given
Setting: 8-mer, flanks averaged, mean of 2 arrays, mostly near background
Relative to: not given
Direction: higher = stronger binding
Measurement: E-score
Residues (chain): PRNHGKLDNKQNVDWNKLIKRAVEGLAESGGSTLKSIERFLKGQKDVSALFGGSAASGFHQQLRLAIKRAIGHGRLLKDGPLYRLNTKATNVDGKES
Strand = AAACCCGT; value = -0.188
Strand = AGGATCAG; value = -0.181
Strand = AGTATATC; value = -0.0428
Strand = CTGGTGAC; value = 0.017
Strand = AATATATC; value = 0.0326
Strand = GGAACGGA; value = -0.0278
Strand = ACGCCGTC; value = 0.0992
Strand = AACACGAA; value = 0.0433
Strand = GTAATCTA; value = 0.0456
Strand = ATGCAAAC; value = -0.0544
Strand = CATATGTA; value = -0.121
Strand = CACTGTTA; value = -0.186
Strand = AGGCTTTG; value = -0.0215
Strand = ATGGCGAA; value = 0.0718
Strand = ACTAGGTC; value = 0.0526
Strand = AGTCGAAT; value = -0.0292
Strand = CCGTTTCC; value = 0.0112
Strand = CAGGCCGA; value = 0.136
Strand = CACTCCAG; value = 0.0508
Strand = CCTGTACA; value = -0.0597
